Published values pooled from the literature.
Lines come from different studies, so protocols differ. ± marks the error that the study gave.
SLCO1B3: Solute carrier organic anion transporter family member 1B3 (SLCO1B3, Homo sapiens, UniProt Q9NPD5)
Sequence of UniProt Q9NPD5 (whole entry, unmodified, looked up): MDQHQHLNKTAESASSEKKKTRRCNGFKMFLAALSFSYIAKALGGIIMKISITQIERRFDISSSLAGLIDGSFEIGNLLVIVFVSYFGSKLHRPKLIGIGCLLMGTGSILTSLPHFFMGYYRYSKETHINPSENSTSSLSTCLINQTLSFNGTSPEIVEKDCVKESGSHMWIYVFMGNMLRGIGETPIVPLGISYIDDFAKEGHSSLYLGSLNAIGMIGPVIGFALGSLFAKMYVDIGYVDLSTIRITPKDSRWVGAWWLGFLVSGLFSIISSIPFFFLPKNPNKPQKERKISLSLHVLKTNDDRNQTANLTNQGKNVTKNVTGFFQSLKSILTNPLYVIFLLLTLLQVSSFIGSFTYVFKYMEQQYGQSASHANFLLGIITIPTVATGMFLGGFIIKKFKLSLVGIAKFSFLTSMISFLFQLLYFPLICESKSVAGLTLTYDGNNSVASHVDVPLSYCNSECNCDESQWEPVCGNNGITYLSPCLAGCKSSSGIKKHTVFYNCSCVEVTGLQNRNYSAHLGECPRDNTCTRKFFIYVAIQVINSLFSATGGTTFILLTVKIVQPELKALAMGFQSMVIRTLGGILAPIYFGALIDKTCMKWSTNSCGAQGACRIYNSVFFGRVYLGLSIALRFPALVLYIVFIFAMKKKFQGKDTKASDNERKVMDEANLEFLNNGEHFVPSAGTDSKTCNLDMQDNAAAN
NR1I2: Nuclear receptor subfamily 1 group I member 2 (NR1I2, Homo sapiens, UniProt O75469)
Sequence of UniProt O75469 (whole entry, looked up): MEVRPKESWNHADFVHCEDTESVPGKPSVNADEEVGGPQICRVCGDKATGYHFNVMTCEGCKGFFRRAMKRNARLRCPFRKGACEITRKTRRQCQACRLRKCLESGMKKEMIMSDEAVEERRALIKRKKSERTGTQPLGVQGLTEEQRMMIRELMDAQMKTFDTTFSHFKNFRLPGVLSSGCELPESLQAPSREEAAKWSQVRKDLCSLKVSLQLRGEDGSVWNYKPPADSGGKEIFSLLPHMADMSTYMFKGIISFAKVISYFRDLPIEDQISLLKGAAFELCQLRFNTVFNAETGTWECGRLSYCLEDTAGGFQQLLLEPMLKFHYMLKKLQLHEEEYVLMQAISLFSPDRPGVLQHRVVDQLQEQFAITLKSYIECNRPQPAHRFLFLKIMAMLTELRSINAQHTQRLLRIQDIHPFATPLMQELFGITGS
SLC22A11: Solute carrier family 22 member 11 (SLC22A11, Homo sapiens, UniProt Q9NSA0)
Sequence of UniProt Q9NSA0 (whole entry, looked up): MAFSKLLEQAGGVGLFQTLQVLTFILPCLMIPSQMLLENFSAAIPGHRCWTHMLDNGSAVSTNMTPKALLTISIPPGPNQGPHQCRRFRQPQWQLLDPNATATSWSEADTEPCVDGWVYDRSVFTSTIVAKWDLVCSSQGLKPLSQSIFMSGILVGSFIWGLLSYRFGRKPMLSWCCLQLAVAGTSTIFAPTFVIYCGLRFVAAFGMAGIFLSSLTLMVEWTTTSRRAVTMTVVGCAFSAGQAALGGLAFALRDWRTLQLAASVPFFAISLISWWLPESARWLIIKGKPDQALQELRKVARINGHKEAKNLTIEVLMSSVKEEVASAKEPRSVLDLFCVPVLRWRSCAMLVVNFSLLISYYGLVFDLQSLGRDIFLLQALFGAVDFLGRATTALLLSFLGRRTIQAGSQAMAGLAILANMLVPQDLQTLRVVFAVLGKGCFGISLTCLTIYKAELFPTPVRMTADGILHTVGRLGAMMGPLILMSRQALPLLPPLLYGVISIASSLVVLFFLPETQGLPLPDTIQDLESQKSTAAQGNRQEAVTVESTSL
SLCO1B3 M233I/S112A: Solute carrier organic anion transporter family member 1B3 (SLCO1B3, Homo sapiens, UniProt Q9NPD5, M233I/S112A)
CYP2D6: Cytochrome P450 2D6 (CYP2D6, Homo sapiens, UniProt P10635)
Sequence of UniProt P10635 (whole entry, looked up): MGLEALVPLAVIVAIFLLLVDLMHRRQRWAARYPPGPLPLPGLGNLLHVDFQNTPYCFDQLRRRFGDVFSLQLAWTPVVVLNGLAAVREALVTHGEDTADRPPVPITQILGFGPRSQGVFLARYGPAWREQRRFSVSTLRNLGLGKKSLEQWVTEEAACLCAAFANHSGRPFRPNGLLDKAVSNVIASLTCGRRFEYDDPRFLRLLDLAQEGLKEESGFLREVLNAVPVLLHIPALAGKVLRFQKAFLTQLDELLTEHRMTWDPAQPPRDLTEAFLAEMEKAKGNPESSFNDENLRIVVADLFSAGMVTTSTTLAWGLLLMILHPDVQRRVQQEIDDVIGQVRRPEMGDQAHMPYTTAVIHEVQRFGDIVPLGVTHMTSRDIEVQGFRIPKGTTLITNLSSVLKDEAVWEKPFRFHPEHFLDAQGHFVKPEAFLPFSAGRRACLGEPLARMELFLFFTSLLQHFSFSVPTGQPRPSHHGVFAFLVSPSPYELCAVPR
Sequence of UniProt P21447 (whole entry, looked up): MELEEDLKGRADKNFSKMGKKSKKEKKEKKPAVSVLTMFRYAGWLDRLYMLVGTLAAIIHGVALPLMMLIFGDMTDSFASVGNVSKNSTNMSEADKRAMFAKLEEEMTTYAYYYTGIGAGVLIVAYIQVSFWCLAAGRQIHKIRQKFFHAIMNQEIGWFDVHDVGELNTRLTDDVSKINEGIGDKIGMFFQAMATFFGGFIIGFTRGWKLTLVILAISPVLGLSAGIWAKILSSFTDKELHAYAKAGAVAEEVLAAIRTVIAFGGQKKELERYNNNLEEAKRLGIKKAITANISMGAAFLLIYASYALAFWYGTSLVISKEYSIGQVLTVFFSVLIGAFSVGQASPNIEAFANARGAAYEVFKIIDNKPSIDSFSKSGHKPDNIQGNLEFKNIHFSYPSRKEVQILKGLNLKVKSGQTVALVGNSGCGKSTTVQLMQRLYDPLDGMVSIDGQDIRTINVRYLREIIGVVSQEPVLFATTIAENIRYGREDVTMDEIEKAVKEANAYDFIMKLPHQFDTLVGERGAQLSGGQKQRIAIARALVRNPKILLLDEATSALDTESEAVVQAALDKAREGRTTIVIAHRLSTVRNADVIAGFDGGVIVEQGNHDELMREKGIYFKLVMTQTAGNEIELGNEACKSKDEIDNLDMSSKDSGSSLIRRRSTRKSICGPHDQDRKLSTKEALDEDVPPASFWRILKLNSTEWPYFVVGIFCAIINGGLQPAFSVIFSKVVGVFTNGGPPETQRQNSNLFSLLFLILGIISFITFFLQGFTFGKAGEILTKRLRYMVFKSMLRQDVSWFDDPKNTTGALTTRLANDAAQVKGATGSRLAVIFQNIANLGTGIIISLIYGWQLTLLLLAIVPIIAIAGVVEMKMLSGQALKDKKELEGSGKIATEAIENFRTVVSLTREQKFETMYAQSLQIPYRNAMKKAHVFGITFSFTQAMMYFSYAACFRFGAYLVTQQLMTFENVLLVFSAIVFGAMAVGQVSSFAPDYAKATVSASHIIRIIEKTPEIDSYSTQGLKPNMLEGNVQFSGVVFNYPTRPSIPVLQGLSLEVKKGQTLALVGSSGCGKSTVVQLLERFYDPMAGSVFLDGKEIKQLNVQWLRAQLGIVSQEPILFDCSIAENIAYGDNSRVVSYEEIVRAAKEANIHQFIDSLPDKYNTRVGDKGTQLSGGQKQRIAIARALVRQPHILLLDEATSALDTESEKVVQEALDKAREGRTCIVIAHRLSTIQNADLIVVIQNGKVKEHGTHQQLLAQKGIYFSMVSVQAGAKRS
Sequence of UniProt Q12809 (whole entry, looked up): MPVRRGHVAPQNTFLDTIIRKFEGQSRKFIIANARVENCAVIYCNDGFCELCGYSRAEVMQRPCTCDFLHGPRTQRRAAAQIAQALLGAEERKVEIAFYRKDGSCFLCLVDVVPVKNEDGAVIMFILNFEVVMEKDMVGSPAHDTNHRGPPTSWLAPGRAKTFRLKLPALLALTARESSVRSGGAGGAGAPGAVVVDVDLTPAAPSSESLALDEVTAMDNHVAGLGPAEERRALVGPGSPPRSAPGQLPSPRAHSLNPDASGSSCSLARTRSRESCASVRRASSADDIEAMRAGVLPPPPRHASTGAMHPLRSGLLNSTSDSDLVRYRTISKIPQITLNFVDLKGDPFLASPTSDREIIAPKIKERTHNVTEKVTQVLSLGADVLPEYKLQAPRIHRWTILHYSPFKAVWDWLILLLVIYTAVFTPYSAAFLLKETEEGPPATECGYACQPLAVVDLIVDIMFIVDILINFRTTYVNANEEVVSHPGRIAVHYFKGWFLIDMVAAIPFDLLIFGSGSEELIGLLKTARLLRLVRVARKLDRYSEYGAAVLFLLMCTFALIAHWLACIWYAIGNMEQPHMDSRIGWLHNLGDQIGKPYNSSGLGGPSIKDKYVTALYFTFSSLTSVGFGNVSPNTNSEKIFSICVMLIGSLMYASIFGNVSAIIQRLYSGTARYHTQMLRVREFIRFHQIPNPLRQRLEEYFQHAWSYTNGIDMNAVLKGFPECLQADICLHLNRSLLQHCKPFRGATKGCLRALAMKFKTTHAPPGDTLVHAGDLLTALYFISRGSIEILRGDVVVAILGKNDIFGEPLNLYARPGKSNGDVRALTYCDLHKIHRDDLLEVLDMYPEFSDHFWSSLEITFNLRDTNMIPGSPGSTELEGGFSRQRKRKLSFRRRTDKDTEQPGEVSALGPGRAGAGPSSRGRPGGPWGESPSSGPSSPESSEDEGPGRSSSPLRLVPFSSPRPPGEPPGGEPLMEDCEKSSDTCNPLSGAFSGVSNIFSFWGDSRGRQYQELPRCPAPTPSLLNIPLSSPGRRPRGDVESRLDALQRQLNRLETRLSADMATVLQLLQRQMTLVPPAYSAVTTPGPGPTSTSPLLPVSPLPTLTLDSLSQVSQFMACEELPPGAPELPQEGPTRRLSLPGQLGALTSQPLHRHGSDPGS

SMILES	target	test	system	conditions	how to read	measurement	value
CNC(=O)c1cc(Oc2ccc(NC(=O)Nc3ccc(Cl)c(C(F)(F)F)c3)cc2)ccn1	SLCO1B3	uptake, substrate	HEK293-A stably expressing SLCO1B3	2 min	–	Vmax	65.6 ± 24 pmol/mg protein/min
c1ccc(-c2cccc(Nc3nccc(NC4CCCCC4)n3)c2)nc1	P-glycoprotein (human MDR1)	–	MDR1-MDCKII	10 µM, 1 h, pH 7.4	–	Papp (B-A)	18.6 ± 14.7 ×10⁻⁶ cm/s
CC[C@H]1OC(=O)[C@H](C)[C@@H](O[C@H]2C[C@@](C)(OC)[C@@H](O)[C@H](C)O2)[C@H](C)[C@@H](O[C@@H]2O[C@H](C)C[C@H](N(C)C)[C@H]2O)[C@](C)(O)C[C@@H](C)/C(=N\OCOCCOC)[C@H](C)[C@@H](O)[C@]1(C)O	CYP2B6	induction, item: CYP2B6 mRNA	primary human hepatocytes	NG, 3 days, 0.1% DMSO	relative to: vehicle	mRNA level	< 4 fold
CCc1cc(/C(C)=N/OCc2ccc(C3CCCCC3)c(C(F)(F)F)c2)ccc1CN1CC(C(=O)O)C1	Cytochrome P450 2C9 (CYP2C9, Homo sapiens, UniProt P11712)	population PK	human, CYP2C9*2/*2, plasma	–	–	CYP2C9-mediated clearance	1.85 L/h
O=c1[nH]c(=O)c(Cc2cccc(C(F)(F)F)c2)c([C@H]2CC[C@H](c3ccccc3)CC2)[nH]1	SLCO1B3	uptake, inhibitor	HEK cells expressing SLCO1B3	together with: CCK-8	–	IC50	> 1 µM
CCCCCCCC(=O)c1cc(OC)c(OC)c(OC)c1CC(=O)OCC	NR1I2	reporter gene, agonist, Gal4 hybrid reporter	HEK293T transiently transfected	10 µM, 16 h, 0.1% DMSO	relative to: vehicle	activation	1.59 fold
c1cncc(-c2cccc(Nc3nccc(NC4CCCCC4)n3)c2)c1	P-glycoprotein (human MDR1)	–	MDR1-MDCKII	10 µM, 1 h, pH 7.4	relative to: B-A over A-B	efflux ratio	1.02
COc1cc(CC(=O)O)ccc1O	SLC22A11	substrate	HEK293 control cells	5 min	–	uptake rate	36.4 ± 1.9 pmol/min/mg protein
CC(C)Nc1ccnc(Nc2cccc(-c3ccncc3)c2)n1	P-glycoprotein (human MDR1)	–	MDR1-MDCKII	10 µM, 1 h, pH 7.4	–	Papp (A-B)	75.2 ± 36.2 ×10⁻⁶ cm/s
CC[C@H]1[C@@H](O)[C@@H]2[C@H](CC[C@]3(C)[C@@H]([C@H](C)CCNC(=O)NS(=O)(=O)c4ccc(C(C)(C)C)cc4)CC[C@@H]23)[C@@]2(C)CC[C@@H](O)C[C@@H]12	ATP-dependent translocase ABCB1 (ABCB1, Homo sapiens, UniProt P08183)	substrate	human, plasma	dose not given, alone	–	AUC(0-inf) geometric mean	353 ng·h/mL
N[C@H](CNC(=O)c1cc(Br)c(-c2ccccc2F)s1)C(=O)O	P-glycoprotein (human MDR1)	–	MDCK canine MDR1 knock-out, human MDR1 transfected	3 µM, pH 7.4	–	apparent permeability	< 10 ×10⁻⁶ cm/s
CC(=O)O[C@H]1C(=O)[C@@]2(C)[C@H]([C@H](OC(=O)c3ccccc3)[C@]3(O)C[C@H](OC(=O)[C@H](O)[C@@H](NC(=O)c4ccccc4)c4ccccc4)C(C)=C1C3(C)C)[C@]1(OC(C)=O)CO[C@@H]1C[C@@H]2O	SLCO1B3 M233I/S112A	uptake, inhibitor, radiolabelled substrate uptake	cells expressing SLCO1B3	100 µM, 2 min, together with: 1 µM [3H]estradiol glucuronide	–	inhibition	40 to 50%
[11CH3]Oc1cccc(CCc2cc(O)c(=O)[nH]n2)c1	ATP-dependent translocase ABCB1 (Abcb1a, Mus musculus, UniProt P21447)	–	CD-1 mice, brain	concentration not given, 5 min, together with: cyclosporine	relative to: without cyclosporine	increase in brain uptake	30%
c1ccc(-c2cccc(Nc3nccc(NC4CCCCC4)n3)c2)cc1	P-glycoprotein (human MDR1)	–	MDR1-MDCKII	10 µM, 1 h, pH 7.4	relative to: B-A over A-B	efflux ratio	7.33
Cc1oc2ccccc2c1Cc1cc(I)c(OCC(=O)O)c(I)c1	Voltage-gated inwardly rectifying potassium channel KCNH2 (KCNH2, Homo sapiens, UniProt Q12809)	ion current, activator, whole-cell patch clamp	HEK293 expressing hERG1	K+ 4 mM, at -20 mV	relative to: untreated	maximal current increase	470%
CC(C)c1nc(N(C)S(C)(=O)=O)nc(-c2ccc(F)cc2)c1/C=C/[C@@H](O)C[C@@H](O)CC(=O)O	Solute carrier organic anion transporter family member 1B3 (SLCO1B3, Homo sapiens, UniProt Q9NPD5, M233I)	substrate, uptake	HEK293-A stably expressing SLCO1B3	2 min	–	Km	24.6 µM
CCc1ccccc1-c1ccc(C(=O)NC[C@@H](N)C(=O)O)s1	P-glycoprotein (human MDR1)	–	MDCK canine MDR1 knock-out, human MDR1 transfected	3 µM, pH 7.4	–	apparent permeability	< 10 ×10⁻⁶ cm/s

SMILES	target	test	system	conditions	how to read	measurement	value
CC(C)CCCCC(=O)N[C@@H](CCN)C(=O)N[C@H](C(=O)N[C@@H](CCN)C(=O)N[C@H]1CCNC(=O)[C@H]([C@@H](C)O)NC(=O)[C@H](CCN)NC(=O)[C@H](CCN)NC(=O)[C@H](CC(C)C)NC(=O)[C@@H](Cc2ccccc2)NC(=O)[C@H](CCN)NC1=O)[C@@H](C)O	plasma proteins	equilibrium dialysis	human, normal renal function, plasma	intravenous, 0.75 mg/kg, 4 h, 37 °C	–	fu	0.111
COc1cccc2c1C(=N)c1c(O)c3c(c(O)c1C2=O)C[C@@](O)(C(C)=O)C[C@@H]3O[C@H]1C[C@H](N)[C@H](O)[C@H](C)O1	Cytochrome P450 2J2 (CYP2J2, Homo sapiens, UniProt P51589)	–	–	pH 7.4	–	Kd	6.08 ± 0.58 µM
CC[C@H](C)CCCCC(=O)N[C@@H](CCN)C(=O)N[C@H](C(=O)N[C@@H](CCN)C(=O)N[C@H]1CCNC(=O)[C@H]([C@@H](C)O)NC(=O)[C@H](CCN)NC(=O)[C@H](CCN)NC(=O)[C@H](CC(C)C)NC(=O)[C@@H](Cc2ccccc2)NC(=O)[C@H](CCN)NC1=O)[C@@H](C)O	plasma proteins	equilibrium dialysis	human, mild renal insufficiency, plasma	intravenous, 0.75 mg/kg, 4 h, 37 °C	–	fu	5%
CC(C)Nc1ccnc(Nc2cccc(-c3cccnc3)c2)n1	P-glycoprotein (human MDR1)	–	MDR1-MDCKII	10 µM, 1 h, pH 7.4	–	Papp (B-A)	61.6 ± 26.1 ×10⁻⁶ cm/s
Cc1ncc(CO)c(C(=O)O)c1O	SLC22A11	substrate	HEK293 control cells	5 min	–	uptake rate	2.5 ± 0.1 pmol/min/mg protein
COc1cccc(-c2cccc(Nc3nccc(NC4CCCCC4)n3)c2)c1	P-glycoprotein (human MDR1)	–	MDR1-MDCKII	10 µM, 1 h, pH 7.4	relative to: B-A over A-B	efflux ratio	5.96
CCC(=O)NS(=O)(=O)c1ccc(-c2c(-c3ccccc3)noc2C)cc1	NR1I2	reporter gene, agonist, Gal4 hybrid reporter	HEK293T transiently transfected	50 µM, 16 h, 0.1% DMSO	relative to: vehicle	activation	0.82 fold
CC(C)n1c(/C=C/C(O)CC(O)CC(=O)O)c(-c2ccc(F)cc2)c2ccccc21 (stereo not shown)	SLCO1B3	substrate, uptake	HEK293-A stably expressing SLCO1B3	2 min	–	Km	3.12 ± 1.32 µM
CC(C)Nc1ccnc(Nc2ccccc2-c2ccccc2)n1	P-glycoprotein (human MDR1)	–	MDR1-MDCKII	10 µM, 1 h, pH 7.4	–	Papp (A-B)	18.4 ± 1.21 ×10⁻⁶ cm/s
N#C[C@H](C[C@@H]1CCCNC1=O)NC(=O)[C@H](CC1CC1)NC(=O)c1cc2cccc(Cl)c2[nH]1	CYP2D6	NADPH metabolic stability	–	2 µM, pH 7.4	–	half-life	> 10 min
NCc1cc2c(cc1F)C(=O)N(C1CCC(=O)NC1=O)C2 (stereo not shown)	Amine oxidase [flavin-containing] B (MAOB, Homo sapiens, UniProt P27338)	substrate, LC-MS/MS	recombinant enzyme	10 µM, 4 h, pH 7.4	–	concentration	8.5 µM
C#Cc1cccc(Nc2ncnc3cc(OCCOC)c(OCCOC)cc23)c1	SLCO1B3 M233I/S112A	uptake, inhibitor, radiolabelled substrate uptake	cells expressing SLCO1B3	100 µM, 2 min, together with: 1 µM [3H]estradiol glucuronide	–	inhibition	40 to 50%
C=CC(=O)Nc1cc(Nc2nccc(-c3cn(C)c4ccccc34)n2)c(OCC(F)(F)F)nc1N(C)CCNC	CYP2D6	substrate depletion	recombinant human CYP	1 µM	–	intrinsic clearance	0.3 µL/min/pmol
CCN1CCN(c2cc(N3CCN(CC)CC3)nc(NCCNc3ccnc4cc(Cl)ccc34)n2)CC1	NR1I2	reporter gene, agonist, Gal4 hybrid reporter	HEK293T transiently transfected	20 µM, 16 h, 0.1% DMSO	relative to: vehicle	activation	1.55 ± 0.35 fold
COC(=O)c1cccc(-c2cccc(Nc3nccc(NC4CCCCC4)n3)c2)c1	P-glycoprotein (human MDR1)	–	MDR1-MDCKII	10 µM, 1 h, pH 7.4	–	Papp (A-B)	0.015 ± 0.011 ×10⁻⁶ cm/s
C[C@]12C[C@H](O)[C@H]3[C@@H](CCC4=CC(=O)CC[C@@]43C)[C@@H]1CC[C@@H]2C(=O)CO	Cytochrome P450 11B1, mitochondrial (CYP11B1, Homo sapiens, UniProt P15538, V320A)	substrate	–	100 µM, phospholipid vesicles	–	18-hydroxylation coupling efficiency	1.7 ± 0.3%
O=C(Nc1c2c(cc3c1CCC3)CCC2)NS(=O)(=O)/C=C/c1nccs1	CYP2D6	–	human liver microsomes	10 µM, pH 7.4, together with: dextromethorphan	–	inhibition	< 0%

A few entries again:
SMILES	target	test	system	conditions	how to read	measurement	value
COc1cccc(-c2cccc(Nc3nccc(NC4CCCCC4)n3)c2)c1	P-glycoprotein (human MDR1)	–	MDR1-MDCKII	10 µM, 1 h, pH 7.4	relative to: B-A over A-B	efflux ratio	5.96
C[C@]12C[C@H](O)[C@H]3[C@@H](CCC4=CC(=O)CC[C@@]43C)[C@@H]1CC[C@@H]2C(=O)CO	Cytochrome P450 11B1, mitochondrial (CYP11B1, Homo sapiens, UniProt P15538, V320A)	substrate	–	100 µM, phospholipid vesicles	–	18-hydroxylation coupling efficiency	1.7 ± 0.3%
